Measured values from different studies.
Parts stem from different laboratories: compare values within a part only. Substitutions count along the parent as printed.

Study 1
Target: CCNF, cyclin fold, Cln2 fusion (human)
Technique: yeast growth competition, sequencing
Medium: yeast
Setting: weak parent motif
Baseline: not given
Direction: higher = stronger binding
Starting sequence: PKN2 docking peptide (human); VSAVQKLDFSDTM
Variant	normalised enrichment score
VSAVQKLDFHDTM [S10H]	-0.0227
VSAVQKLDFSDTK [M13K]	0.339
VSAVQKLDASDTM [F9A]	0.0821
VSAVQKLDFSDWM [T12W]	1.5
VSAVQTLDFSDTM [K6T]	-0.0615
VSAVQKLDFSDTY [M13Y]	1.22
VSAVQKLDVSDTM [F9V]	-0.346
VSADQKLDFSDTM [V4D]	-1.13

Study 2
Target: Interferon regulatory factor 7, full length, phosphomimetic (IRF7, Homo sapiens, UniProt Q92985, residues 1-503, S101K/S471D/S472D/S475D/S476D/S477D/S483D/S484D/S487D)
Sequence of UniProt Q92985 (whole entry, unmodified, looked up): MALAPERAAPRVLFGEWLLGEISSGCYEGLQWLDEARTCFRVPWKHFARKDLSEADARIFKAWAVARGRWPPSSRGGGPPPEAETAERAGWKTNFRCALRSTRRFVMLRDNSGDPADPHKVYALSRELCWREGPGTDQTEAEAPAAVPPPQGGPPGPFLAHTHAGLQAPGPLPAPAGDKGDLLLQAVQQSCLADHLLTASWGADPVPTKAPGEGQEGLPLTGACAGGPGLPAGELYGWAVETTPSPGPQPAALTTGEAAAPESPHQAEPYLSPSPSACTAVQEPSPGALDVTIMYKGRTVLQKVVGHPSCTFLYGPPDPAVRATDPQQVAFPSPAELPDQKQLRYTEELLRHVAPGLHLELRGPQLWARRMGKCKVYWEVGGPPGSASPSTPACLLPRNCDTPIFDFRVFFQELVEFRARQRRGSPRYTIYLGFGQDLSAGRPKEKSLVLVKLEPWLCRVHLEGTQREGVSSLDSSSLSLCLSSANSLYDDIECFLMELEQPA
Technique: protein-binding microarray
Form: double-stranded DNA, one strand shown
Medium: in vitro
Concentration: 250 nM
Setting: 60-bp whole probe
With: salmon DNA 0.4 mg/ml
Baseline: random background probes
Direction: higher = stronger binding
Shared flanks, not repeated: GCCTAGCAC … GTCTTGATTCGCTTGACGCTGCTG
Oligonucleotide	log fluorescence
TTAGGTTGCGGGTTTCGGTTAGTGCTA	6.1 z-score
GACGGTTTCATTTTCCTGACGTGCTAG	6.92 z-score
TTAGATTTCGGGACTGGATTCGTGCTA	0.578 z-score
TTAGGACTGCTACTGCCTTAGTGCTAG	-0.558 z-score
CTAATTTTGAGACTCATGGGGTGCTAG	0.73 z-score
GACGATATCAGTCTCGACACGTGCTAG	0.245 z-score
TACGGTATCGGTCTCGGGACGTGCTAG	0.721 z-score
TTAGGTCTCGGACTGGGTTGGTGCTAG	0.275 z-score
TTAGGTTTTGGTCTCGGTTAGTGCTAG	2.5 z-score
GACCGTTTCCTACTGCTGACGTGCTAG	2.46 z-score
TCAATTTTTTTTATCAAACTGTGCTAG	0.46 z-score

Study 3
Target: RNA binding protein fox-1 homolog 2, RRM domain, GST-SBP tag (RBFOX2, Homo sapiens, UniProt O43251-10, residues 100-194)
Technique: RNA Bind-n-Seq
Form: RNA
Medium: in vitro
Concentration: 365 nM
Setting: natural RNA segment, single round, ends assumed
Baseline: no-protein control
Direction: higher = stronger binding
Shared flanks, not repeated: GGGAGUUCUACAGUCCGACGAUC … UGGAAUUCUCGGGUGCCAA
Target sequence (chain): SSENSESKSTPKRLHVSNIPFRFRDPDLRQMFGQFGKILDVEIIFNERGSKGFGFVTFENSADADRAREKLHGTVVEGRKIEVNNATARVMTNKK
Oligonucleotide	RBNS enrichment (R)
GGACCAGGUCUUCUUAUGCAGUGACAAGAGUGCGUAGUGUUUUCUUUGCAUACUGUUCAUCGCAGUAGCAACAAAAUUGCAAUCAGCCAACAGGCUUUAAAACGUCCCUG	0.225
UCCCGCCCCUCUGCUUUCGCAGGAGCUCUUGUGCUUGAGUUCAGUGUUAGUGGUAGCGUGGCUCACUCCACUUGGAGGUGGCGGCCGUCUGACCGUGUGUUACUGCUUUG	0.398
CAAAUAAUGAAUCUUCGGGUGUUUCCCUUUAGCUAAGCACAGAUCUACCUUGGUGAUUUGGACCCUGGUUGCUUUGUGUCUAGUUUUCUAGACCCUUCAUCUCUUACUUG	0.283
CUCCCCUAACAAAAUGGGCUGUCCCUGCCCAACAAGUCUGAAAUAGACCUUAAAACUGUGCUGCCUUAGUGGUAAGUAAGGGGUGGGGGUUGGACAGUGAAUCUUAAGAU	0.234
GGGCAUCUUAGAGUUGAUUGAUGGAAAAAGCAGACAGGAACUGGUGGGAGGUCAAGUGGGGAAGUUGGUGAAUGUGGAAUAACUUACCUUUGUGCUCCACUUAAACCAGA	2
GGACUCCUGGGUUAGCAUCAAGACGGCUGCCUGCUGAGGGGCGCUUUCCUUCUGACUCUGUUUGGAUUGAGGGGAAGUCCGUCUUGCUGAUGAUGGUGACCGUGAAAGUG	0.583
AAAGGAUCAGGCUCGUAGGGAGCAGGAUCAUGCCAGAAAUAGGGAUGGAAGUGCAUCCUCUGGGAAAAAGAUAAUGGCUUCUGAUUCAACAUAGCCAUAGUCCUUUGAAG	0.676
GAGCCCGGCGCCCCUGCCACCUCCCUGACCCGUCUAAUAUAUAAAUAUAGAGAUGUGUCUAUGGCUGCCCUGGCUCUGUCUGUGUUCGCGACGCCCCCGCCCUGCCCCGU	0.492

Other studies, line by line
Molecule	target	test	test system	conditions	scale	measurement	value
PhoQ, residues 284 288 289 292 302 303 AGGCYF	PhoP, residues 12 14 15 18 19 NMSFL (Escherichia coli, UniProt P23836)	Sort-seq, refers to: YFP reporter	E. coli	PhoQ-PhoP variant library, with: 10 µM Mg2+	baseline: high Mg2+ state, higher = stronger signaling	fold induction	15.6

Some of these lines once more (study 1):
Variant	normalised enrichment score
VSAVQTLDFSDTM [K6T]	-0.0615
VSAVQKLDVSDTM [F9V]	-0.346
VSAVQKLDFSDWM [T12W]	1.5
VSAVQKLDFSDTK [M13K]	0.339
